Measurements from different studies.
Parts stem from different laboratories: compare values within a part only.
Sequence of UniProt P10721 (whole entry, looked up): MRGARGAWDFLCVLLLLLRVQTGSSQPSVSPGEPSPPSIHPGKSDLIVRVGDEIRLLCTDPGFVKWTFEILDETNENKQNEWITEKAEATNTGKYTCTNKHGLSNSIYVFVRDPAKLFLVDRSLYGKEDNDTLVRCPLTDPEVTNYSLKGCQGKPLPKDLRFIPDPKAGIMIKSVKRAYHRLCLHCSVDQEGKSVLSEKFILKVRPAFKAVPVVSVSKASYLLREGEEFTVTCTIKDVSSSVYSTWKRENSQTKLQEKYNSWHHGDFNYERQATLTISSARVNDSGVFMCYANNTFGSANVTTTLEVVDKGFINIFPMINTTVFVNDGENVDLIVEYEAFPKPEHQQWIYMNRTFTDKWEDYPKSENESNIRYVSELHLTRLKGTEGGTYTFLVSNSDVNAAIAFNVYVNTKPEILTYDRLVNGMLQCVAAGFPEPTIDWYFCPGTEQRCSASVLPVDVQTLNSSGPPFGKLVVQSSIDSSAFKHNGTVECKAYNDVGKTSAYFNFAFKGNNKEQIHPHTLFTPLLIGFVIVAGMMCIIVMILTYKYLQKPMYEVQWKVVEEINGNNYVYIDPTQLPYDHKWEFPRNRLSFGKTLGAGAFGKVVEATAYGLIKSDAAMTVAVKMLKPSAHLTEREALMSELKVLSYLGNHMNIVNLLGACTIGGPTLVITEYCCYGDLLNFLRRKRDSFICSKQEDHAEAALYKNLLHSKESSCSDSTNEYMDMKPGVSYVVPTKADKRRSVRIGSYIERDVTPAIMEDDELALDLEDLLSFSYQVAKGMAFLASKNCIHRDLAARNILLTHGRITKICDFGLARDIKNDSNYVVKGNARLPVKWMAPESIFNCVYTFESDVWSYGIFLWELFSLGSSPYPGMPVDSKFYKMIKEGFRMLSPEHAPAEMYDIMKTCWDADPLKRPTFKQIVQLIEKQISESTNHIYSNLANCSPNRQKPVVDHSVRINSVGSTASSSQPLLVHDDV
Sequence of UniProt P42336 (whole entry, unmodified, looked up): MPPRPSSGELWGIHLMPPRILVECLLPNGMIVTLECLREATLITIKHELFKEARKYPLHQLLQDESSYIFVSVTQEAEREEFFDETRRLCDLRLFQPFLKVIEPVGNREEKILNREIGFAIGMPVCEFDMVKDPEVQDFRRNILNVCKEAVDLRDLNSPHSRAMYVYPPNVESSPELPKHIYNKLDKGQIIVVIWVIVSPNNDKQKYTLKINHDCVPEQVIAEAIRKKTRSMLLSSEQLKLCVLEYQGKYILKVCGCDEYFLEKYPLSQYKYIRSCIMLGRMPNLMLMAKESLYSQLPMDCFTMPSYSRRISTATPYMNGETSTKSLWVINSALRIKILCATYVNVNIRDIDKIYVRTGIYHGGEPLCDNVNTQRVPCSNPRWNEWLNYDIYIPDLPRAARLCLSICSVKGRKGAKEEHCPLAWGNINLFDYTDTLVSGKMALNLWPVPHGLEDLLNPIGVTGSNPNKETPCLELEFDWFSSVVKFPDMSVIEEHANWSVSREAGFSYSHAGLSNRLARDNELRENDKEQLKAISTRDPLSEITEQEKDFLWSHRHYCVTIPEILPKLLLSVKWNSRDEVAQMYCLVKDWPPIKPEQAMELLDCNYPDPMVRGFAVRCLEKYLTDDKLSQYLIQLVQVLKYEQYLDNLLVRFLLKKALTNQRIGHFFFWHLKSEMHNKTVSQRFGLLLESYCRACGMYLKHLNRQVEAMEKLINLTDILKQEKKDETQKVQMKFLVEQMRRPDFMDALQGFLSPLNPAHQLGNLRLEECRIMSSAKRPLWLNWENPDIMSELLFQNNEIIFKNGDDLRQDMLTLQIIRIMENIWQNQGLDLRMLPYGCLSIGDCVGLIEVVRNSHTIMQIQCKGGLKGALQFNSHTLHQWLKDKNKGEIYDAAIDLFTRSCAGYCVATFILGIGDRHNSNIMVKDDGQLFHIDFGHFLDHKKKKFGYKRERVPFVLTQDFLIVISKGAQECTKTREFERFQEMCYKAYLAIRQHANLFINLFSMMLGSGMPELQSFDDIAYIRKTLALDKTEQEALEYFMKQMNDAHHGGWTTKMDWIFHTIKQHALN

Set 1
Target: RING finger protein unkempt homolog, zinc fingers 1-6, GST-SBP tag (UNK, Homo sapiens, UniProt Q9C0B0, residues 30-357)
Sequence of UniProt Q9C0B0 (30-357, looked up): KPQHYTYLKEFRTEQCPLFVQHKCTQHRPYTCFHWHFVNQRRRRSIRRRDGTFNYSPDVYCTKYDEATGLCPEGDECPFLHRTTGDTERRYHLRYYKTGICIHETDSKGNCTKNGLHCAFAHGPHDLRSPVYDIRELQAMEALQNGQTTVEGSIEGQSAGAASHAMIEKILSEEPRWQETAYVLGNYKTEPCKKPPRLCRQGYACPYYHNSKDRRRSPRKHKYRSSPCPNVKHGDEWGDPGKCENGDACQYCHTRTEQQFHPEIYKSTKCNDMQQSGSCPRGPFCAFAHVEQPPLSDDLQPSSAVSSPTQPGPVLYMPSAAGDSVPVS
Method: RNA Bind-n-Seq
Form: RNA
Sample: in vitro
Concentration: not given
Setting: RNA with constant flanks, human-mouse chimeric sites, ends assumed
Relative to: input RNA pool
Reading: higher = stronger binding
Shared flanks, not repeated: GGGAGUUCUACAGUCCGACGAUC … CAACAGAGGAUUGAGCAUCA
Oligonucleotide	bound/input enrichment [ratio]
UUGUGCAAUGAUGCUUGAGAUGGUUUUUGCAGAUGCAGAAAUCGCUGCAAGGUAAUCACAAUAGAUAAAAGUGGUAUUUUAAACCUUUGAAAUAAAUGGAUGUAACUGUACCUUGGUACA	0.722
CAGCUGCAGACAGAAAAGGAUGAGAAGGAGCUGUAUAAGGUACAUUUGAAGAAUACAGAAAUAGAAAAUACGAAGCUUAUGUCAGAGAUACAGACUUUAAAAAAUUUAGAUGGAAACAAA	2.88
AGAGAAAUGAGAAAGAAUCUUACACAAGAUGAGAUGCAAAGAAUGUCUACUAGAGUCCUUUUGGCGACUCUUUCCAUUCCUAUUACUCCUGAGCGAACUGAUAUUGCUCGACUUUUGGAU	0.157
GCGGCAGAAUCAUGGAGGACAUAAUGCAGCUCCCCAAAGCGCGCGUCAACGCCAGCAUGCUAGCUCAGUAUAUCGACCGGCCCGUGUGCUUCGUGGGGAGGCUGGAAAAGAUUCAUCCCA	0.112
AAUUUCCUGUCAUACUUUUUAGACAUUCACAUCAGACUUACAGAGCAUUGGGCCUCUUUCUAGGUUUGUGUUAUUUCUCAGCUAUGGAUAUGAUCAAAUGAGAACACUGGCAGCCAGAUG	0.557
UUUCUACUGCAGCAGACCAUGCUACGAAUUAAGGAUCCUAAGAAGUCCCUGGAUUUUUAUACGAGGGUUCUUGGACUGACCCUCCUGCAGAAGCUUGACUUCCCUGCUAUGAAGUUCUCG	0.168
CCUGCUCAGAUCACCAUGAAAGUAAUCCAAGGCCUAUAUAGUGGGGUCACCACAGUGGAACUAGAUACCCUGGCUGCUGAGACAGCCGCAACCUUGACCACGAAGCACCCUGACUAUGCC	0.217
AACGUGGAGUUGAGUUCCUUGGCCCGGCUUCCCAGCUUGAAUAAACUUCGAAAAUUGGAGCUUAGUGACAAUAUAAUUUCUGGAGGCUUGGAAGUCCUGGCAGAGAAAUGUCCAAAUCUU	0.179

Set 2
Target: Histone acetyltransferase KAT6A, winged helix 1, GST fusion (KAT6A, Homo sapiens, UniProt Q92794, residues 1-85)
Method: protein binding microarray
Form: double-stranded DNA, one strand shown
Sample: in vitro
Concentration: not given
Setting: 8-mer, flanks averaged, mean of 2 arrays, mostly near background
Relative to: not given
Reading: higher = stronger binding
Construct (chain): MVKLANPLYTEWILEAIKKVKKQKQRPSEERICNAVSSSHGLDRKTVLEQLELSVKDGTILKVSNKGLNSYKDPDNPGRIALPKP
Oligonucleotide	E-score
GCAGCGGA	0.112
TATTGAGA	-0.206
ATCTATAG	-0.0619
TCACGCCA	-0.0384
CATATGAC	-0.0102
CCTAGAAA	-0.0574
CGGCGTTA	0.378
CTCGTTGA	-0.135

Other studies, line by line
Compound	target	assay	conditions	scale	measurement	result
COc1ccc(Cl)cc1NC(=O)Nc1cc(C)nc2ccccc12	KIT (Homo sapiens, UniProt P10721)	enzyme activity, inhibitor	0.5 µM	relative to: control	remaining activity	102%
COc1cc(-c2cn(C3CCc4c(F)cccc4N(CC(F)(F)F)C3=O)nn2)ccc1-n1cnc(C)c1 (stereo not drawn)	PIK3CA (Homo sapiens, UniProt P42336, H1047L)	cell-free assay, competition with immobilised ligand	1 µM		remaining binding	96%

Repeated from above (set 1):
Oligonucleotide	bound/input enrichment [ratio]
CAGCUGCAGACAGAAAAGGAUGAGAAGGAGCUGUAUAAGGUACAUUUGAAGAAUACAGAAAUAGAAAAUACGAAGCUUAUGUCAGAGAUACAGACUUUAAAAAAUUUAGAUGGAAACAAA	2.88
